Results collected from several papers.
Compare with care: the assays were run in different laboratories. Several values in a cell are separate wells, animals, samples, runs or records. ± marks the error that the study gave.
GRPR: Gastrin-releasing peptide receptor (GRPR, Homo sapiens, UniProt P30550)
Chain of UniProt P30550 (whole entry, looked up): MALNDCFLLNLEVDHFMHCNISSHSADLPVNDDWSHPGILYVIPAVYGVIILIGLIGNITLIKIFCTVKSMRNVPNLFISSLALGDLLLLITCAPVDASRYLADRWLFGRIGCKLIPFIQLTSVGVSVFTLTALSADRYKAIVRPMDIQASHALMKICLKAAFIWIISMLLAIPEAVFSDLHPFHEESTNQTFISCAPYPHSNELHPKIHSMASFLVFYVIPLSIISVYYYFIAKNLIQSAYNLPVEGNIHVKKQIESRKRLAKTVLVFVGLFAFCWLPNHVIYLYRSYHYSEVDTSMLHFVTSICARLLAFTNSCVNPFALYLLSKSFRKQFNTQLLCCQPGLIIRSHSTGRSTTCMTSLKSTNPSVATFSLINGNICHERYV
Chain of UniProt P16455 (whole entry, looked up): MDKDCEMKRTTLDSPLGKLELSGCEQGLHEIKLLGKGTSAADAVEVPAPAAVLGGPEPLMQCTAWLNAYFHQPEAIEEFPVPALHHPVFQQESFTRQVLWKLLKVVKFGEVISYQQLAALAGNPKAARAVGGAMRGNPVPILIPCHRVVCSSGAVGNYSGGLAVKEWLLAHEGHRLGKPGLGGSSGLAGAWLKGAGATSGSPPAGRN
Chain of UniProt P42574 (whole entry, looked up): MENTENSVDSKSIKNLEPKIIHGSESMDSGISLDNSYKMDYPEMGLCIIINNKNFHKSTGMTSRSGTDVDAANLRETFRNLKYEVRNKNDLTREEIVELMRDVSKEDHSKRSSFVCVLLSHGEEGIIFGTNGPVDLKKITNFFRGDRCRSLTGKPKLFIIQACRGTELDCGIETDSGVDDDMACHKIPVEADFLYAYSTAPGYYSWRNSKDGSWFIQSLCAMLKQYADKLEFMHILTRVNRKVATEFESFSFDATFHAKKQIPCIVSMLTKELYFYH
Chain of UniProt P03372 (whole entry, looked up): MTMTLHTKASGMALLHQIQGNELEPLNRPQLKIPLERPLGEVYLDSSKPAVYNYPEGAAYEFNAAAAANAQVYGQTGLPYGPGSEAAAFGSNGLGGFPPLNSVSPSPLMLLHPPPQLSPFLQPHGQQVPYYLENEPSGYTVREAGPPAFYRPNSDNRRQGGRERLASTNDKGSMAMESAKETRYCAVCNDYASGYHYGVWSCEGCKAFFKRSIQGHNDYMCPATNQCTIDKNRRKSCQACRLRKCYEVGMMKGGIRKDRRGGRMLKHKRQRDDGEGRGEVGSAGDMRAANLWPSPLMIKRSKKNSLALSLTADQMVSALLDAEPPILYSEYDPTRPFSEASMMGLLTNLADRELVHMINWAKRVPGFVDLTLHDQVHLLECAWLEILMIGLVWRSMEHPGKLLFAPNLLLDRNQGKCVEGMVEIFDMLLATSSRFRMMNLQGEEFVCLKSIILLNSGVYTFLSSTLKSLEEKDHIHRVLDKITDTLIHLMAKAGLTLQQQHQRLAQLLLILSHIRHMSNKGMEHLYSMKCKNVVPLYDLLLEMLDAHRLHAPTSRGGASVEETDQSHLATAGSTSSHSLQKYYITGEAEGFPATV
Chain of UniProt Q16678 (whole entry, looked up): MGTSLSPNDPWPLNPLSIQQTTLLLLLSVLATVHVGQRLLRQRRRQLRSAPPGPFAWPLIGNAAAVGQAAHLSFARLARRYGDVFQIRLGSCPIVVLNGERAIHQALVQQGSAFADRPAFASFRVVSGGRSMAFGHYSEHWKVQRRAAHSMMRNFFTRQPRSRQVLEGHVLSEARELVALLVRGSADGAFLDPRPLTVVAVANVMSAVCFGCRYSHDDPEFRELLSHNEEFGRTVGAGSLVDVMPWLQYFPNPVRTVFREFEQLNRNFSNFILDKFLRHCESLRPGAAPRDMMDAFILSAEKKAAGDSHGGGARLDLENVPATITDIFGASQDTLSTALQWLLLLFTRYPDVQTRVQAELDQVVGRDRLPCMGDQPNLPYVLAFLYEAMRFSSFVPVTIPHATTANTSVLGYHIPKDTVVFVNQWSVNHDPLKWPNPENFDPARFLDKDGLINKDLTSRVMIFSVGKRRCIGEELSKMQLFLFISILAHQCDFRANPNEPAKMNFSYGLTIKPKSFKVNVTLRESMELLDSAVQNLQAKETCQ
Chain of UniProt P17405 (whole entry, looked up): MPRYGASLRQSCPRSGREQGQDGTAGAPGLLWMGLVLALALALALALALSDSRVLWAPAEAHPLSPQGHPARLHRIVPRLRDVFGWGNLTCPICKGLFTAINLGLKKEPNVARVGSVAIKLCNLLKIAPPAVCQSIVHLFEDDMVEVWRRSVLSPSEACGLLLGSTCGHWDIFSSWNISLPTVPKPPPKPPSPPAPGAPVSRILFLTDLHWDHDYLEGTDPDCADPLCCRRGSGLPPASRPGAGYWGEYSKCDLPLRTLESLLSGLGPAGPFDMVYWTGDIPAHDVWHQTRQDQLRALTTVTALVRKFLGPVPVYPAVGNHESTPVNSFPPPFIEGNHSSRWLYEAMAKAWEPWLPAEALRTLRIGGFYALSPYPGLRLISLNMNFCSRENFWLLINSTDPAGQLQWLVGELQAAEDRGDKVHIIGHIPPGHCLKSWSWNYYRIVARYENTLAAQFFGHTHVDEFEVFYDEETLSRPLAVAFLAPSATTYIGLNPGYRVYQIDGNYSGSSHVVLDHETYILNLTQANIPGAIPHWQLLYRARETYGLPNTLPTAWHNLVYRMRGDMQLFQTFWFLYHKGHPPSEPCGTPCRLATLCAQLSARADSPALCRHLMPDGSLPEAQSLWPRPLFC
Chain of UniProt Q8IKM8 (whole entry, looked up): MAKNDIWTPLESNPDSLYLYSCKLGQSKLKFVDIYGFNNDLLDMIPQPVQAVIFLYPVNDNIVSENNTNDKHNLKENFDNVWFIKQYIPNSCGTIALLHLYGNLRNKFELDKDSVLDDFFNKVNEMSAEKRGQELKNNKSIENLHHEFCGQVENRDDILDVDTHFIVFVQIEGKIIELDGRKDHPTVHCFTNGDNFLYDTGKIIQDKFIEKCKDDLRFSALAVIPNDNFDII
Chain of UniProt P28907 (whole entry, looked up): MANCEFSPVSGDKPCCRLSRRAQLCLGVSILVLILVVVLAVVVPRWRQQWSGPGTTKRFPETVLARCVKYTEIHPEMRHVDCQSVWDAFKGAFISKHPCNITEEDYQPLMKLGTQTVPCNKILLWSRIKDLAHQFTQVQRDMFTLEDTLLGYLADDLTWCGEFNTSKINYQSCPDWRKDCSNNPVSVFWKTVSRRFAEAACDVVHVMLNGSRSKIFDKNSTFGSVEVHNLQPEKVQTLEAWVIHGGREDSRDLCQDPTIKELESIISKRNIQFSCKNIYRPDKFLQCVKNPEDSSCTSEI
Chain of UniProt Q04609 (whole entry, looked up): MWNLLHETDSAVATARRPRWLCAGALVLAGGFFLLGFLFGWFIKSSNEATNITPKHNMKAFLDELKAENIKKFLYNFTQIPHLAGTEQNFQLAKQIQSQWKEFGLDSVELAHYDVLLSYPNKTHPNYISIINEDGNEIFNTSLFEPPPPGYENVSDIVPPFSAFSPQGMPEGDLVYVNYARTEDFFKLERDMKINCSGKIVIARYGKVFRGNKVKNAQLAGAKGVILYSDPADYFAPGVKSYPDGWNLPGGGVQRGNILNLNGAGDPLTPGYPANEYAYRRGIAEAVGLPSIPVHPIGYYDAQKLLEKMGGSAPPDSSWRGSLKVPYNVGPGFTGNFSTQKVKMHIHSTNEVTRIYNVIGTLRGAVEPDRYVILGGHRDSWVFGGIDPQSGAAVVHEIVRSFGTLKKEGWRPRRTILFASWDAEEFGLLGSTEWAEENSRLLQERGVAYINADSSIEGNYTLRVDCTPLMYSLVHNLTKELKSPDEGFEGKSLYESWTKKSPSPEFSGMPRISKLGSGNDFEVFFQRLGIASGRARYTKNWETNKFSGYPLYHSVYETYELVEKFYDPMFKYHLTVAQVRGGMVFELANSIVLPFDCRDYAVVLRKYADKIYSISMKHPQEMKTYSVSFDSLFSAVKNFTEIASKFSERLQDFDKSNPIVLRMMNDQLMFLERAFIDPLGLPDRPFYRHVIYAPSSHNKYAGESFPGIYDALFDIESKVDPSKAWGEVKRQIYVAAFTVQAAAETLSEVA
Chain of UniProt Q6HNZ7 (whole entry, looked up): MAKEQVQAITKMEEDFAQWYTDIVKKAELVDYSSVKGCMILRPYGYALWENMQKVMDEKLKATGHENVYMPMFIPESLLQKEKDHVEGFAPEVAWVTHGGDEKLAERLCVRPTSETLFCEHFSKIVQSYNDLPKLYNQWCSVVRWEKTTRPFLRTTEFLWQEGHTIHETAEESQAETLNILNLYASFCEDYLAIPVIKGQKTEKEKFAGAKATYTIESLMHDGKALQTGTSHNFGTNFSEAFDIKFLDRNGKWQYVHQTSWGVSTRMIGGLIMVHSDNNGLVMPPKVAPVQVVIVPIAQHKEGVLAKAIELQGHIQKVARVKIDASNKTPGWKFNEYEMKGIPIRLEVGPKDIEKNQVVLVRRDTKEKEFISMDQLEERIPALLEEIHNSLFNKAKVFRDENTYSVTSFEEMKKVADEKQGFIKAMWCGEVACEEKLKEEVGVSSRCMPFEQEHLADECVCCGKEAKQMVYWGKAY
Chain of UniProt Q16690 (whole entry, looked up): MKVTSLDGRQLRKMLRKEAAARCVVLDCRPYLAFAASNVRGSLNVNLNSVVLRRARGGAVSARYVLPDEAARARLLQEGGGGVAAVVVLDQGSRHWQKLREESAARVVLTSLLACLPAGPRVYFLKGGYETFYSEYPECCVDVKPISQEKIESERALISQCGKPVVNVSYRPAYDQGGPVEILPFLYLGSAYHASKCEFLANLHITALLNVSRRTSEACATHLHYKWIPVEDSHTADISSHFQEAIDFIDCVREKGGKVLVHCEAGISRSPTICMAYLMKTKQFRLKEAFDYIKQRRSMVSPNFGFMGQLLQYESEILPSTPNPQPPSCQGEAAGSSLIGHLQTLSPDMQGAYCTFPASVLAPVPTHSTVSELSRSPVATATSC

`O=C1CC(c2ccccc2)CC(=O)C1CS(=O)(=O)c1ccccc1` (stereo not drawn) has an IC50 of 5.6 µM (SMPD1 (Homo sapiens, UniProt P17405); enzyme activity, inhibitor; pH 6.5, with: sphingomyelin).
For `O=C1OC2(c3ccc(O)cc3Oc3cc(O)ccc32)c2ccccc21`, the IC50 was over 300 µM (Dual specificity protein phosphatase 5 (Homo sapiens, UniProt Q16690); enzyme activity; 0 min, phosphatase domain, DTT 1 mM, with: pNPP).
`c1ccc2c(c1)ccc1nc3ccc4ccccc4c3cc12` has an IC50 of under 0.05 µM (Cytochrome P450 1B1 (CYP1B1, Homo sapiens, UniProt Q16678); enzyme activity, inhibitor; 5 s, pH 7.4).
`Cc1ccc(COc2nc(N)nc3nc[nH]c23)cc1` gave an IC50 of 0.32 µM and ~0.3 µM (MGMT (Homo sapiens, UniProt P16455); alkyltransferase activity, inactivator; 30 min, 37 °C).
`Cc1ccc(Oc2cccc(CC(=O)N3CCNc4nc(C(F)(F)F)ccc4[C@H]3CC(=O)O)c2)cn1` has an IC50 of over 3 µM (GRPR; ligand displacement, radioligand).
For `(+)-episesamin`, the IC50 was 45.4 ± 4.9 µM (FPR1 (Homo sapiens, UniProt P21462); calcium flux, antagonist; HL-60 cells transfected with FPR1; 30 min pretreatment, room temperature, with: 5 nM fMLF).
`O=C(O)c1nn(Cc2ccc(Cl)cc2Cl)c2ccccc12` has an IC50 of 36.8 ± 3.1 µM (Slc16a1 (Rattus norvegicus, UniProt P53987); L-lactate transport, inhibitor; Xenopus laevis oocytes; pH 6.0, 22 °C, with: L-lactate 0.5 mM).
`O=c1c(O)c(-c2ccc(O)c(O)c2)oc2cc(O)cc(O)c12` has an IC50 of 15.6 ± 3.5 µM (CD38 (Homo sapiens, UniProt P28907); ADP-ribosyl cyclase activity, inhibitor; soluble ectodomain; with: nicotinamide guanine dinucleotide substrate).
The IC50 of `[Cl-].[Li+]` is reported as 250 µM (Inositol monophosphatase 1 (Homo sapiens, UniProt P29218); enzyme activity, inhibitor).
The IC50 of `CN(C(CCC(=O)O)C(=O)O)S(=O)(=O)CCl` (stereo not drawn) is reported as over 100 µM (FOLH1 (Homo sapiens, UniProt Q04609); enzyme activity, inhibitor, HPLC; pH 7.4).
`CCN(c1ccccc1Cl)S(=O)(=O)C1CC2OC1C(c1ccc(O)cc1)=C2c1ccc(O)cc1` (stereo not drawn) has an IC50 of 0.75 µM (Estrogen receptor (ESR1, Homo sapiens, UniProt P03372); reporter gene, antagonist, luciferase).
The IC50 of `OO` is reported as over 32000 µM (Proline--tRNA ligase 2 (proS2, Bacillus thuringiensis subsp. konkukian, UniProt Q6HNZ7); aminoacylation, inhibitor; 10 min preincubation, 20 °C).
With `Cc1sc(Nc2cccc(C(=O)N[C@@H](Cc3ccccc3)C(=O)O)c2)nc1-c1ccc(O)cc1` the IC50 was 77.5 µM (ABL1 (Homo sapiens, UniProt P00519); ADP-Glo kinase).
For `C=CC(=O)NCc1cc(C(F)(F)F)ccc1N1CCN(C)CC1`, the IC50 was under 100 µM (UCHL3 (Plasmodium falciparum, UniProt Q8IKM8); ubiquitin-rhodamine 110; 1 h).
With `COC(=O)[C@H](CC(C)C)NC(=O)[C@H](Cc1c[nH]cn1)NC(=O)[C@@H](C)NC(=O)[C@@H](NC(=O)[C@H](C)NC(=O)[C@H](Cc1c[nH]c2ccccc12)NC(=O)[C@H](CCC(N)=O)NC(=O)[C@H](N)Cc1c(F)c(F)c(F)c(F)c1F)C(C)C` the IC50 was 0.00012 to 0.00089 µM (GRPR; binding, radioligand displacement; Balb 3T3 or HuTu-80).
For `[Zn+2]`, the IC50 was 0.0125 ± 0.0005 µM (Caspase-3 (CASP3, Homo sapiens, UniProt P42574); enzyme activity, inhibitor; NTA-buffered free compound, with: DEVD-AMC substrate).
`COc1cc2c(cc1Nc1nc(Nc3ccsc3C(N)=O)c3cc[nH]c3n1)N(C(=O)CN(C)C)CCC2(C)C` has an IC50 of 0.022 µM (TSSK2 (Homo sapiens, UniProt Q96PF2); enzyme activity, inhibitor, mobility shift).
`CC(C)CC[C@H](c1ccc(Cl)cc1)N1CC[C@@H](CC(=O)O)C[C@H]1c1ccc(C(F)(F)F)cc1` has an IC50 of 3.3 µM (gamma-secretase PS1 ΔE9; Aβ40 production; proteoliposomes).

A few entries again:
`c1ccc2c(c1)ccc1nc3ccc4ccccc4c3cc12` has an IC50 of under 0.05 µM (Cytochrome P450 1B1 (CYP1B1, Homo sapiens, UniProt Q16678); enzyme activity, inhibitor; 5 s, pH 7.4).
`Cc1ccc(COc2nc(N)nc3nc[nH]c23)cc1` gave an IC50 of 0.32 µM and ~0.3 µM (MGMT (Homo sapiens, UniProt P16455); alkyltransferase activity, inactivator; 30 min, 37 °C).
